# Experimental data gathered from unrelated publications.
# Parts stem from different laboratories: compare values within a part only. Substitutions count along the parent as printed.
# UniProt Q9UKS7, sequence (whole entry, looked up): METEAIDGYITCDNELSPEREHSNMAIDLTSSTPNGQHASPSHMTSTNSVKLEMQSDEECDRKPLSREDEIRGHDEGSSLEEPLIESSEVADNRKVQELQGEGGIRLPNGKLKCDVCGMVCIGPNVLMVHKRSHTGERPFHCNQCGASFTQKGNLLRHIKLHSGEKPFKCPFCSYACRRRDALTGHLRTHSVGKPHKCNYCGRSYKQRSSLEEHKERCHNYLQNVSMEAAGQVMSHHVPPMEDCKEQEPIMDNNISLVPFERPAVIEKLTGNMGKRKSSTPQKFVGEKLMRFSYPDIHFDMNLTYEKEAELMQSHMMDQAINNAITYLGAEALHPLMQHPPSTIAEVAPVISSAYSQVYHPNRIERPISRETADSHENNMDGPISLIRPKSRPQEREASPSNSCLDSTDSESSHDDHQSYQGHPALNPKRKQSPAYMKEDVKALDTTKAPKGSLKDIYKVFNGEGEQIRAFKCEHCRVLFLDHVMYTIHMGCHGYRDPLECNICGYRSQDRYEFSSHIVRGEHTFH
# UniProt P30530, sequence (whole entry, looked up): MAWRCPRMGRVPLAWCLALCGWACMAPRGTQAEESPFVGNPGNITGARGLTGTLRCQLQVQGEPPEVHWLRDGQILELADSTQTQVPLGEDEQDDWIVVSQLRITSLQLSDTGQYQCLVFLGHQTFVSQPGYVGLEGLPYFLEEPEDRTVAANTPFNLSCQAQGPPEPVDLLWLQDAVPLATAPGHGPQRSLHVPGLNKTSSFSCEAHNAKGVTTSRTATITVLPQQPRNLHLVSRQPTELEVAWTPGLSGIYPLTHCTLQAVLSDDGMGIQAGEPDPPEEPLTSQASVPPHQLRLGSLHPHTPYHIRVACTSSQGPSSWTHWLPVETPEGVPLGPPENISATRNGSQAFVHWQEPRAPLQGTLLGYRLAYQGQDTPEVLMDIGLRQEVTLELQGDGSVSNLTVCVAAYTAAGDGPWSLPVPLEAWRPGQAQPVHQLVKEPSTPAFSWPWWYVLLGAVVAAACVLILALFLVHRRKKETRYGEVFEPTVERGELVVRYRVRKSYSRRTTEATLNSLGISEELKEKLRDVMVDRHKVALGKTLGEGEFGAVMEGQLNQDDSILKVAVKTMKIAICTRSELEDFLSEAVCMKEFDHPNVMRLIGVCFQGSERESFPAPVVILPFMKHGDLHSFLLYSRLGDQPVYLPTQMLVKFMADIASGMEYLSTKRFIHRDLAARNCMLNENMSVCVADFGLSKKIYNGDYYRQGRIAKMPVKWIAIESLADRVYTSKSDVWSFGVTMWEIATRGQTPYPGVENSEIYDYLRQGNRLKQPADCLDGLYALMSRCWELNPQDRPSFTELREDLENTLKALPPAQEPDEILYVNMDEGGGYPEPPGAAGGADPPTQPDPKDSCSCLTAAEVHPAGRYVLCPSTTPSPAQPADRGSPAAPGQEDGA
# UniProt P06239, sequence (whole entry, looked up): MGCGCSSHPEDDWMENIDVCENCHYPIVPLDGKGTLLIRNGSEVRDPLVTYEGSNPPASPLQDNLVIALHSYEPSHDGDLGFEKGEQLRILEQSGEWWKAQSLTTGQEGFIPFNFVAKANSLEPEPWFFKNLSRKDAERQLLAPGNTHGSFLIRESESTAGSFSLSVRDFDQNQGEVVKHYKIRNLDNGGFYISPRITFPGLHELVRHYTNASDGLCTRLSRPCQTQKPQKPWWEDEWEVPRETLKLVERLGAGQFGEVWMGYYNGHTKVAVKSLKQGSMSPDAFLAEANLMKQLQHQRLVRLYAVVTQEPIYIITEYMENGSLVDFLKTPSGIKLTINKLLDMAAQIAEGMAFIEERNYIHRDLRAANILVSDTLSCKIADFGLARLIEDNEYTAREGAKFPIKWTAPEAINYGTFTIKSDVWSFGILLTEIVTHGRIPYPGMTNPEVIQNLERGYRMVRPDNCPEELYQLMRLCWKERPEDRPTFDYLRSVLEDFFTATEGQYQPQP
# UniProt Q96SW2, sequence (whole entry, looked up): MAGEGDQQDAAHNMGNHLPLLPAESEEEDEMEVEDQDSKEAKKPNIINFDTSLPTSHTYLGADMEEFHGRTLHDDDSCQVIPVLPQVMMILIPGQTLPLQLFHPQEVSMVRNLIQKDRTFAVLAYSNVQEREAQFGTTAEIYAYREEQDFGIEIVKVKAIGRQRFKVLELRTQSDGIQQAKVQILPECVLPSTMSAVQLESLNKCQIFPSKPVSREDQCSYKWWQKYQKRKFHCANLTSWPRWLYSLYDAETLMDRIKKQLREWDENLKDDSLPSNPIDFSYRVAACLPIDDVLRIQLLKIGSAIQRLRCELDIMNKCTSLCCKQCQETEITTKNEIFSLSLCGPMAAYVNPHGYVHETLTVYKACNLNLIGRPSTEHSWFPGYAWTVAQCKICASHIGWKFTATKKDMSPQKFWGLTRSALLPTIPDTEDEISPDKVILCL
# UniProt Q9UM73, sequence (whole entry, looked up): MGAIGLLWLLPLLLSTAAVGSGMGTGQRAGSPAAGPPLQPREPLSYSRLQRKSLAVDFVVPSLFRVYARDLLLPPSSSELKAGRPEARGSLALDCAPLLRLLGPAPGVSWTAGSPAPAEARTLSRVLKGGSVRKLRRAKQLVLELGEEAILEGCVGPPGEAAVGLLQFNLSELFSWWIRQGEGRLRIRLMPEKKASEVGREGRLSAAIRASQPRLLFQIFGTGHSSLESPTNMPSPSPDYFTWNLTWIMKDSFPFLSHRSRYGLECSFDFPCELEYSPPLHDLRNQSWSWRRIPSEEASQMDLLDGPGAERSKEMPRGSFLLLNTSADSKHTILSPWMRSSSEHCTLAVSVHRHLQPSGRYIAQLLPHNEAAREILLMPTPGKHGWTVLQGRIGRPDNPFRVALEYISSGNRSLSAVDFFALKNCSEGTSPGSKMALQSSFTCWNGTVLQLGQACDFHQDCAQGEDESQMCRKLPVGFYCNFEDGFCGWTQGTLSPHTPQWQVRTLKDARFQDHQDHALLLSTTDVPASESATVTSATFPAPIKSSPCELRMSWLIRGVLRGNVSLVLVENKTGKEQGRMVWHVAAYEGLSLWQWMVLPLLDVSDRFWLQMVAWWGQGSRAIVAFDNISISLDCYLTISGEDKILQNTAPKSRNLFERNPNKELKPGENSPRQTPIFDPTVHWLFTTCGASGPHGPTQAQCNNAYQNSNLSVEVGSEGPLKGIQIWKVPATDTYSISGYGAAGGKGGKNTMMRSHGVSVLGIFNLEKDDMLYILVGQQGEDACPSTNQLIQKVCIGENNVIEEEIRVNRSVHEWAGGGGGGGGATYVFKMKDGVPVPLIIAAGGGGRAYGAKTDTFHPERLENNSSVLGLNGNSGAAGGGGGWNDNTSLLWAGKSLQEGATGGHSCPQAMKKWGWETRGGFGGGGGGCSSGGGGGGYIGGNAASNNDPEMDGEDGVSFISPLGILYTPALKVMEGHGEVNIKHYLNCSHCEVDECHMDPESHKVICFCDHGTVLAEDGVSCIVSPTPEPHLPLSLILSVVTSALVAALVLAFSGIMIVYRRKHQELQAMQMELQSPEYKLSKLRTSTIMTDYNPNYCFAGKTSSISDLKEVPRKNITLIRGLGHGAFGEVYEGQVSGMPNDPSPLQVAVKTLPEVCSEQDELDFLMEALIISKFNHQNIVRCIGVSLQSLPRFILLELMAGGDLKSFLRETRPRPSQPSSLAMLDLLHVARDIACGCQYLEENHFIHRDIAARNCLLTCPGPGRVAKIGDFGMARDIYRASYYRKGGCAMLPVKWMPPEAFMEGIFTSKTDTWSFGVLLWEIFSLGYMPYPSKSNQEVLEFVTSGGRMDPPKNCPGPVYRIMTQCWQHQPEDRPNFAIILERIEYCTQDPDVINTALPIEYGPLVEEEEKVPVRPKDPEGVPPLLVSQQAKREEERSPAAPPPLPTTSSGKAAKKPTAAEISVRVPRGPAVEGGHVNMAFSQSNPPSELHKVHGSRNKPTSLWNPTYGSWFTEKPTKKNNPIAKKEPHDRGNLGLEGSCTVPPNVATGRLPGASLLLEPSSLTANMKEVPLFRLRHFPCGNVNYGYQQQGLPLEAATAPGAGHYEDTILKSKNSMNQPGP
# UniProt P22607, sequence (whole entry, looked up): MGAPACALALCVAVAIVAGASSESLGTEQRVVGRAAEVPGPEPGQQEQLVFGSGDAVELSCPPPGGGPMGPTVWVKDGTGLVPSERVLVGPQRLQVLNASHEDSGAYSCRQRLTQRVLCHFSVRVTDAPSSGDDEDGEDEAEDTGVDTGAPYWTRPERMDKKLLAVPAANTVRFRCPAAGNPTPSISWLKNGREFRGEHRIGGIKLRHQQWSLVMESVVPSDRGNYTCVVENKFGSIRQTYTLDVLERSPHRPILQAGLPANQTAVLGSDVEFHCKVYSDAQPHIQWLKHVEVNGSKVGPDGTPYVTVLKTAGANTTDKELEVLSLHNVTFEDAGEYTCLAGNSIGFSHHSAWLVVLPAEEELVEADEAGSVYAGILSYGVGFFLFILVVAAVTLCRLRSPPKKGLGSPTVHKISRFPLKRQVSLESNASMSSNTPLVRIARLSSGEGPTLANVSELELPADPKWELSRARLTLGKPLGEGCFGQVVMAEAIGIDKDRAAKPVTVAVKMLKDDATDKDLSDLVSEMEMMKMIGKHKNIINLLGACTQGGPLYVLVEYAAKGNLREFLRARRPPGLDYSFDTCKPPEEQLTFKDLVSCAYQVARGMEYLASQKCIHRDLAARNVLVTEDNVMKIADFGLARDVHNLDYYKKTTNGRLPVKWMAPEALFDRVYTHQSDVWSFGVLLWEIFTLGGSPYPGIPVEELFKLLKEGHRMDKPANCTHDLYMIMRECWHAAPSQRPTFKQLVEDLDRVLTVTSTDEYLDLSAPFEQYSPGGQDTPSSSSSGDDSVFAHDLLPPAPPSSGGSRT

# Study 1
# Target: CCNB3, cyclin fold, Cln2 fusion (human)
# Method: yeast growth competition, sequencing
# Medium: yeast
# Setting: strong parent motif
# Relative to: not given
# Direction: higher = stronger binding
# Starting sequence: viral docking peptide; TSVRRALFTGGSD; partner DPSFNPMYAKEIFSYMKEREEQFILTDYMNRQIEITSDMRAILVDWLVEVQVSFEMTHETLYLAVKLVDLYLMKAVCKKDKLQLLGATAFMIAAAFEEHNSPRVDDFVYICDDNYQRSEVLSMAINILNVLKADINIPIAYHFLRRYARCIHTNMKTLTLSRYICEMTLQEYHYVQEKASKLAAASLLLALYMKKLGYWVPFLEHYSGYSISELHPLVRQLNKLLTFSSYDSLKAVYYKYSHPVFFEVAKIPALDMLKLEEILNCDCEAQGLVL
Substitution,normalised enrichment score
R5T,0.19
A6C,2.37
R4M,0.417
T9A,1.25
S2A,1.1
S12D,2.59
A6R,3.93
L7Y,0.464

# Study 2
# Compound: COC(=O)c1cc(N(C)C(=O)c2ccn3ncc(-c4ccc(C(=O)O)cc4)c3c2)ccc1Cl
target,test,IC50
"Tyrosine-protein kinase ABL1 (ABL1, Homo sapiens, UniProt P00519)","enzyme activity, inhibitor",> 30 µM
"5-hydroxytryptamine receptor 1A (HTR1A, Homo sapiens, UniProt P08908)",cell-free assay,> 30 µM
"ALK tyrosine kinase receptor (ALK, Homo sapiens, UniProt Q9UM73)","enzyme activity, inhibitor",> 30 µM
"3',5'-cyclic-AMP phosphodiesterase 4D (PDE4D, Homo sapiens, UniProt Q08499)","cell-free assay, inhibitor",12.2 µM
"Fibroblast growth factor receptor 3 (FGFR3, Homo sapiens, UniProt P22607)","enzyme activity, inhibitor",> 30 µM
"Fibroblast growth factor receptor 2 (FGFR2, Homo sapiens, UniProt P21802)","enzyme activity, inhibitor",> 30 µM
"Tyrosine-protein kinase Lck (LCK, Homo sapiens, UniProt P06239)","enzyme activity, inhibitor",> 30 µM
"Ephrin type-A receptor 4 (EPHA4, Homo sapiens, UniProt P54764)","enzyme activity, inhibitor",> 30 µM
"Tyrosine-protein kinase receptor UFO (AXL, Homo sapiens, UniProt P30530)","enzyme activity, inhibitor",> 30 µM

# Mixed results
SMILES,target,test,test system,conditions,measurement,value
O=C1CCC(N2Cc3c(ccc4c3OCC43CCCN(Cc4ccccc4)CC3)C2=O)C(=O)N1 (stereo not shown),"CRBN/Zinc finger protein Helios (Homo sapiens, UniProt Q96SW2+Q9UKS7)","degrader, HiBiT",HEK293,13.72 nM,protein remaining,95.5%
C[C@H](NC(=O)c1cnc2n1[C@](C)(Cc1ccc(C#N)cc1)C(=O)N2c1cc(Cl)c(F)c(Cl)c1)C(=O)NC1(c2ccccn2)CC1,"5-hydroxytryptamine receptor 2A (HTR2A, Homo sapiens, UniProt P28223)","binding, radioligand binding",,10 µM,inhibition,9.3%

# Some of these lines once more (study 2):
target,test,IC50
"5-hydroxytryptamine receptor 1A (HTR1A, Homo sapiens, UniProt P08908)",cell-free assay,> 30 µM
"ALK tyrosine kinase receptor (ALK, Homo sapiens, UniProt Q9UM73)","enzyme activity, inhibitor",> 30 µM
